# Measurements pooled from the literature.
# Compare with care: the assays were run in different laboratories. Several values in a cell are separate wells, animals, samples, runs or records.
# CYP2D6: Cytochrome P450 2D6 (CYP2D6, Homo sapiens, UniProt P10635)
# Chain of UniProt P10635 (whole entry, unmodified, looked up): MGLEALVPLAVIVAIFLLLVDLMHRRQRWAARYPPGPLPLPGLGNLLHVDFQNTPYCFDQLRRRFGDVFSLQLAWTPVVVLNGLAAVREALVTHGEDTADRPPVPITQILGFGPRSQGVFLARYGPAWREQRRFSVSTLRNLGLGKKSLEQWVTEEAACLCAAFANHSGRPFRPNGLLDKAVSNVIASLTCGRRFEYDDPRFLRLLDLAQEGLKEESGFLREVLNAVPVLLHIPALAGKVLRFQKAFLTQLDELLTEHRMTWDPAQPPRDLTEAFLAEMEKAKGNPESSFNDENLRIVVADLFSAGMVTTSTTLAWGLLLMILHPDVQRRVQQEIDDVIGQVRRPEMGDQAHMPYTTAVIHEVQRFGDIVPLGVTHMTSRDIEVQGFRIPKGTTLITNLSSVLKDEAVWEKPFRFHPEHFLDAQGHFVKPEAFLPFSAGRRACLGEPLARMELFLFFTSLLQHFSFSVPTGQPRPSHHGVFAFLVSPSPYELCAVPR
Compound,target,test,test system,conditions,IC50
Cc1nc(-c2cnc(NC(C)C)n(C)c2=O)ccc1Oc1ccnc(-c2cnn(C)c2)c1,CYP2D6,inhibitor,,"30 min, preincubation without NADPH",> 100 µM
COc1ccc2[nH]c([S+]([O-])Cc3ncc(C)c(OC)c3C)nc2c1 (centres unmarked),CYP2D6,inhibitor,,,191 µM
Cc1cccnc1C(=O)Nc1ccc(N2C(=O)c3cccc(Cl)c3C2=O)c(Cl)c1,CYP2D6,"enzyme activity, inhibitor",,2D6,> 30 µM
CN(C/C=C/C#CC(C)(C)C)Cc1cccc2ccccc12,"Cytochrome P450 2D6 (CYP2D6, Homo sapiens, UniProt P10635, P34S/S486T)",,,pH 7.4,0.47 µM
N#Cc1ccc(Nc2nc(N)cc(Oc3c(F)cc(-c4ccc(C#N)cc4)cc3F)n2)cc1,CYP2D6,,human liver microsomes,added: dextromethorphan 50 µM,> 50 µM
CCCN(CCC)CCc1cccc2c1CC(=O)N2,CYP2D6,inhibitor,,added: substrate AMMC,0.85 µM
CCOc1cc(-c2nncn2C)ccc1Nc1ncc2cc(C)nc(NCC(C)(C)C)c2n1,CYP2D6,"enzyme activity, inhibitor",,,10 to 50 µM
CC(CN1c2ccccc2Sc2ccccc21)N(C)C (centres unmarked),CYP2D6,inhibitor,,,0.39 µM
Cc1cc(O[C@@H]2CCOC2)cc(C(=O)Nc2ccc(F)cn2)n1,CYP2D6,inhibitor,,,> 30 µM
O=C(NCCN1CCCC1)c1cc(-c2ccc(CN3CCOCC3)cc2)nc2ccc(F)cc12,CYP2D6,"enzyme activity, inhibitor",human liver microsomes,added: bufuralol,73 µM and 94 µM and 65 µM
COc1ccc(Cc2nc(NC(=O)C34CC5CC(CC(C5)C3)C4)n(C)c2Cc2ccc(OC)c(OC)c2)cc1,CYP2D6,,,,> 200 µM
